# Measurements of several laboratories.
# Numbered parts are unrelated; each lists some results of a single study.

# Series 1 — method: protein-binding microarray; molecule type: double-stranded DNA, one strand shown; sample: in vitro; tested at: 250 nM; setting: 60-bp whole probe; together with: salmon DNA 0.4 mg/ml; relative to: random background probes; direction: higher = stronger binding; all sequences stand within: GCCTAGCAC … GTCTTGATTCGCTTGACGCTGCTG
# Target: Interferon regulatory factor 7, full length, phosphomimetic (IRF7, Homo sapiens, UniProt Q92985, residues 1-503, S101K/S471D/S472D/S475D/S476D/S477D/S483D/S484D/S487D)
# Target sequence (chain): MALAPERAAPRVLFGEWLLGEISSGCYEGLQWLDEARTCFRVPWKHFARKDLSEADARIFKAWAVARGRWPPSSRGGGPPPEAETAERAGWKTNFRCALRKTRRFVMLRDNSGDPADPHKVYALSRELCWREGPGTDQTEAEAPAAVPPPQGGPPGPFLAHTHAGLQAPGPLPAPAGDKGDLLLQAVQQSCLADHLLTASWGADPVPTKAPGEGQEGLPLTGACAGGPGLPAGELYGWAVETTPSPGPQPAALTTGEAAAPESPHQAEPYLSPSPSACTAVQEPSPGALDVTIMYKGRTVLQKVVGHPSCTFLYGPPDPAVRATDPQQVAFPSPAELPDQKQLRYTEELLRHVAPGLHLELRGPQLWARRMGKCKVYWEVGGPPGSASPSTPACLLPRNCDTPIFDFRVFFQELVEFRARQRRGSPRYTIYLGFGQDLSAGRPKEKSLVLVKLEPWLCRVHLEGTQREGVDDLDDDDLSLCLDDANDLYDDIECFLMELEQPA
Sequence,log fluorescence [z-score]
TCAGATTCCAGTTTCGATTAGTGCTAG,9.85
TTAGGTTTCCTTTACCTTTAGTGCTAG,2.14
ATAGATCTCAGTCTCGATTAGTGCTAG,1.49
TTAGGTTTCGGTTTCGGGTAGTGCTAG,14.4
GAGGAACTGGGGTTTCGAGACGTGCTA,2.33
TCATTTCTCTGCTCTTTTACTGTGCTA,1.91
TTAGGTATCGACTTTCGGTTAGTGCTA,2.82
GACGGACTGAGACTGGAGACGTGCTAG,-0.648
TTAGGTATCAGTATCGATTAGTGCTAG,1.07
CCATCTCAGCCTCCCCAAGGGTGCTAG,0.363
ACTAGCTTCCATTTTCTGAAGTGCTAG,0.283
TTAGCTTTCGGGACTGGATTAGTGCTA,0.0517
GAAGGACTGGGGTATCGGGACGTGCTA,-0.699
CATACAATTTCAGATTCCAGTGTGCTA,0.622
GACAAACTGAGTATCGAGACGTGCTAG,0.111
AGCCTTATCCCTAATCTCAGCGTGCTA,0.0256
GACGGTTTCCTACTGGTGACGTGCTAG,1.24
TTAGATTTCGGATATCGATTAGTGCTA,1.06
GACGAACTGGGTTTCGGGACGTGCTAG,2.18

# Series 2 — method: RNA Bind-n-Seq; molecule type: RNA; sample: in vitro; tested at: 200 nM; setting: whole 134-nt RNA, ends assumed; together with: 150 mM LiCl; relative to: input library; direction: higher = stronger binding; library: 7-deaza-guanosine replaces G
# Target: Ras GTPase-activating protein-binding protein 1, full length (G3BP1, Homo sapiens, UniProt Q13283)
# UniProt Q13283, sequence (whole entry, looked up): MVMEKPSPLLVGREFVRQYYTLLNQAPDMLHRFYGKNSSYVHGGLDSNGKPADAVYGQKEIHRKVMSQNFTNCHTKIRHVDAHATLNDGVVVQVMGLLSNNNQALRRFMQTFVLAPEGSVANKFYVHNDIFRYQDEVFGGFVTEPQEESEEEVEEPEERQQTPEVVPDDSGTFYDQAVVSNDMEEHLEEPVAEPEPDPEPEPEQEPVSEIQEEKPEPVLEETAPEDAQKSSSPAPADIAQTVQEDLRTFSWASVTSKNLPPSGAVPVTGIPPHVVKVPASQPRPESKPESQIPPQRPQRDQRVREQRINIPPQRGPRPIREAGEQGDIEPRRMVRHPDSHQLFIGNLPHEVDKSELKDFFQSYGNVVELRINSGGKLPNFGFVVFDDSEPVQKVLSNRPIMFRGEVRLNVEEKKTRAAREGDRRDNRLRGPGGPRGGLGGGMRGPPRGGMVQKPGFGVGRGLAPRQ
# All sequences stand within: GGGAGUUCUACAGUCCGACGAUC … UGGAAUUCUCGGGUGUCAAGG
Sequence,log2 enrichment
CCUCAAGUCCUGUGCUACACAUCGUAUGUACCGAAUCGGCGGGGCGGCGGGGAAAGUAUUAUGUUACGCCGUUCGGAUCUGCACUUCCAG,0.142
CUCAAGUCCUGUGCUACACAUCGUAUGUACCGAAUCGGUUUGGUUUUUGGUGGAAAGUAUUAUGUUACGCCGUUCGGAUCUGCACUUCCA,0.583
CUCAAGUCCUGUGCUACACAUCGUAUGUACCGAAUCGGGCCGGCCGGCCGGGGAAAGUAUUAUGUUACGCCGUUCGGAUCUGCACUUCCA,0.649
UUUCACUUCCAGCCAGCUGUGAAGAAGGUGAGCUUGCCUUCCAUCUUCCCCCCUAUCCGCCGCGUAUCUCCGUCGUCUGCAAGCGCGUGA,1.08
CAAGUCCUGUGCUACACAUCGUAUGUACCGAAUCGGGAAAAAAAGGGAGGGUGGGAAAGUAUUAUGUUACGCCGUUCGGAUCUGCACUUC,-0.0642
AGUCCUGUGCUACACAUCGUAUGUACCGAAUCGGGAAAGGGUUUUUUUGGGUUUGGGAAAGUAUUAUGUUACGCCGUUCGGAUCUGCACU,-1.72
GCAGGAAGUAAAAACAAAUGGAAAUGCUUCGGAUAGUGGCAAAGGUGGGGGUUGCUAAGGAAAGGGUGGGAUGGGAGUGGGUAAAGAGUU,0.114
CUCAAGUCCUGUGCUACACAUCGUAUGUACCGAAUCGGAGGUUUUUGGAAAGGAAAGUAUUAUGUUACGCCGUUCGGAUCUGCACUUCCA,-0.133

# Series 3 — method: RNA Bind-n-Seq; molecule type: RNA; sample: in vitro; tested at: 365 nM; relative to: no-protein control; direction: higher = stronger binding
# Target: RNA binding protein fox-1 homolog 2, RRM domain, GST-SBP tag (RBFOX2, Homo sapiens, UniProt O43251-10, residues 100-194)
# Setting: natural RNA segment, single round, ends assumed
# All sequences stand within: GGGAGUUCUACAGUCCGACGAUC … UGGAAUUCUCGGGUGCCAA
# Target sequence (chain): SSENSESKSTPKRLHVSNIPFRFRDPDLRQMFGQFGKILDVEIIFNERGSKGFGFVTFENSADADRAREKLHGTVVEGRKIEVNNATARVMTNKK
Sequence,RBNS enrichment (R)
AACAUUCUUCAUUGCAAGUAAAAGAUCCAUAAGUGGCAUUUUACACGGCUGCGAGUAUUGUUAUAUCUAAUCCUAUUUUAAAAGAUUUUUGGUAAUAUGAAGCUUGAAUA,0.353
UGGGAUUCUGUGUGUCCUCUGUGCUAGUAGUCCAGGACAGGAAUGUAAAGUCAGAAUGCGGGGCCAGGAGGGCCUCUUCCUCCCUCUUCCCUCCCAAGAAACCAGGUUGG,2.68
CUUUAGAAGGGUGGUCUUUAUUCAGGUUUUACUGUAAUGGUAAGGAUUGACUCAAGAGACAGUAUUAGUAAAUUUAUUGUGUAUGGAUCAAAAGUGAAUAAUGUAUGAAU,0.265
UUUGUGGGAUUUUGUUUGGACACAGAGUUGUUUUGCAAUCAUGGUGUGCUUCCCAGGGACAGAGCGUGUGCUGUGGCGGCUAGGCUCCUUGGAGGUCACAAGCAGCUGGC,0.883
GUUUUGAACCCUUGAACCUGUGAUUGUGACCCAUGAGGGGGGACCUUUCAGUGCUAAAGCUGAUCAUGUGUGUAGCCAGAAAGGUACUUUUUUUCUUUUAAUUUUUGUUU,1.46
CUGCAACCAUUAUCUUUGUUCUUGAGUUCAUCAUGCAUUUAAAAUGAGAUGCAAGAGCAUUUAGCAUACCAUGUAAAUAUGGACCUUUUAAAAUUAAAAUACUAUUGGAA,0.627
ACAAAGACAGUUCAGCUCCAGACACUGAACUUGGAAUCCUUUGUCUUUGGAUUAAAAGUCAUAAACUUAAAAAAAAAAAUCUCUUUAUUCAAAAAGAUAGUUAAAUCAUG,0.767
AGAAGAGGGUUUCCACGAGCGGGAGGGUCGUCCGUACUGCCGGCGGGACUUCCUGCAGCUGUUCGCCCCACGCUGCCAGGGCUGCCAAGGCCCUAUUUUGGAUAACUACA,0.398

# Series 4 — method: RNA Bind-n-Seq; molecule type: RNA; sample: in vitro; tested at: not given; relative to: input RNA pool; direction: higher = stronger binding
# Target: RING finger protein unkempt homolog, zinc fingers 1-6, GST-SBP tag (UNK, Homo sapiens, UniProt Q9C0B0, residues 30-357)
# Setting: RNA with constant flanks, human-mouse chimeric sites, ends assumed
# All sequences stand within: GGGAGUUCUACAGUCCGACGAUC … CAACAGAGGAUUGAGCAUCA
# Target sequence (chain): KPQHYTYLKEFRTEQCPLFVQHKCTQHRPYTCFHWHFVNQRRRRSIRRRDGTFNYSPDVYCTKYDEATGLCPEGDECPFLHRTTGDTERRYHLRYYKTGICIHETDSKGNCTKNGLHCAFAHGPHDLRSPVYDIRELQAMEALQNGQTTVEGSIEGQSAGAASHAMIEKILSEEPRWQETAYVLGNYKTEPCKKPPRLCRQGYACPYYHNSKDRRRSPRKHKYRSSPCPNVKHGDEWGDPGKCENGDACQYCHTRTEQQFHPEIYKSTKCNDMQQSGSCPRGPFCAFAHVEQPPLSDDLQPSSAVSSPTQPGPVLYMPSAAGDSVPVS
Sequence,bound/input enrichment [ratio]
CUCAGAGACGUGGCAUAUCAGUAUGUGAAAAAGGGGGCUCGUAUAUUUGUGGAAGGGAAAGUGGACUAUGGUGAAUACAUGGAUAAAAACAAUGUGAGGCGGCAAGCAACAACAAUCAUA,0.336
UUUCUACUGCAGCAAACGAUGCUAAGAAUUAAGGAUCCUAAGAAGUCACUGGAUUUUUAUACUAGAGUUCUUGGACUGACCCUCCUGCAGAAGCUUGACUUCCCUGCUAUGAAGUUCUCG,0.0851
GUAGCUGGGACUACAGAAAUGCUGGUAAUUUCAGUCACUUGCUGAUGACUUCUGAUGUCCCAGCAAAUGUUGGCAUUGUUGACUGCUGAGAAGAUACACUCGCAAGGAUACAGCAGUGGU,0.0955
UUCAAAGAAAAGGGCAGUUCAUAAAUAUCAUAAGUAACUCUGGGGGAGGGAAAUUCUGUUCUUUUGUUUAAUUUUCCCCCAGAUAAAGCCAAAGUGUGUGUUGAAGAACUGAGAAAAAAU,0.247
CAGUCCCCGUGUCCCAGUGCAGGACGAUGUGAACAAAAACUCAAAGCGGACCCUCUAUUGUAGUUCUUUUUUUAAAUAAUGUGCUAUUAUUGUUUGUAAAAAAGGAAUUUUUUUUAAAGA,0.701
CAGCGCCGAGGCCGCGGUUUCCCCCUGGGCCUCCCCAGCAGCAGCCAUGGGCAUCAAGUUUUUAGAAGUUAUCAAACCAUUCUGUGCAGUUCUACCAGAAAUUCAGAAGCCUGAAAGGAA,1.04
UAACCACAUCAAGAUGGUUGGGAAGCUGAAGCAGAACUUACUAUUGGCAUGUCUGGUGAUUAGUUCUGUGACCGUGUUUUACCUGGGCCAGCAUGCCAUGGAGUGCCAUCACCGAAUAGA,0.232
AAAGCCCAAGUAUUUUGAAAAAACUCGAACAGAUUUGACAAGGGUAGCCAGCUUGGAGUCUAGCAACUUUGCCAAUGUGCUUACCAACUGGGGGCUUGUUUUUCUUUUCUUCUUUCAAAU,0.318

# Excerpt of the above (series 2):
Sequence,log2 enrichment
GCAGGAAGUAAAAACAAAUGGAAAUGCUUCGGAUAGUGGCAAAGGUGGGGGUUGCUAAGGAAAGGGUGGGAUGGGAGUGGGUAAAGAGUU,0.114
CCUCAAGUCCUGUGCUACACAUCGUAUGUACCGAAUCGGCGGGGCGGCGGGGAAAGUAUUAUGUUACGCCGUUCGGAUCUGCACUUCCAG,0.142
CUCAAGUCCUGUGCUACACAUCGUAUGUACCGAAUCGGGCCGGCCGGCCGGGGAAAGUAUUAUGUUACGCCGUUCGGAUCUGCACUUCCA,0.649
CUCAAGUCCUGUGCUACACAUCGUAUGUACCGAAUCGGAGGUUUUUGGAAAGGAAAGUAUUAUGUUACGCCGUUCGGAUCUGCACUUCCA,-0.133
CUCAAGUCCUGUGCUACACAUCGUAUGUACCGAAUCGGUUUGGUUUUUGGUGGAAAGUAUUAUGUUACGCCGUUCGGAUCUGCACUUCCA,0.583
CAAGUCCUGUGCUACACAUCGUAUGUACCGAAUCGGGAAAAAAAGGGAGGGUGGGAAAGUAUUAUGUUACGCCGUUCGGAUCUGCACUUC,-0.0642
UUUCACUUCCAGCCAGCUGUGAAGAAGGUGAGCUUGCCUUCCAUCUUCCCCCCUAUCCGCCGCGUAUCUCCGUCGUCUGCAAGCGCGUGA,1.08
